{"data": "Measurements pooled from the literature", "note": "Protocols differ between the studies behind these lines."}
{"SMILES": "Cc1cccc(-c2[nH]c(CNc3ccccc3F)nc2-c2ccc3ncnn3c2)n1", "test system": "relapsed refractory multiple myeloma patients", "conditions": "oral, dose not given, with: pomalidomide", "quantity": "median time to best response", "result": "2 months"}
{"SMILES": "COCCOc1cnc2ccn([C@H](C)c3nnc4c(F)cc(-c5cnn(C)c5)cn34)c(=O)c2c1", "test system": "MET-amplified advanced solid tumours", "conditions": "dose not given", "quantity": "median duration of response", "result": "197 days"}
{"SMILES": "N#CC[C@H](C1CCCC1)n1cc(-c2ncnc3[nH]ccc23)cn1", "test": "phosphoflow cytometry, measured: pS6", "test system": "patients, patient plasma", "conditions": "dose not given, C1D15 steady-state trough", "quantity": "median inhibition", "result": "59.2%"}
{"SMILES": "CN[C@@H](C)C(=O)N[C@H]1CN(S(=O)(=O)c2cccc(S(=O)(=O)N3CC[C@H]4CC[C@@H](C(=O)NC(c5ccccc5)c5ccccc5)N4C(=O)[C@@H](NC(=O)[C@H](C)NC)C3)c2)CC[C@H]2CC[C@@H](C(=O)NC(c3ccccc3)c3ccccc3)N2C1=O", "test": "RECIST 1.1", "test system": "advanced pancreatic cancer patients", "conditions": "dose not given, efficacy-evaluable, with: AG", "quantity": "median overall survival", "result": "6.44 months"}
{"SMILES": "C=CC(=O)Nc1cc(Nc2ncc(C(=O)OC(C)C)c(-c3cn(C)c4ccccc34)n2)c(OC)cc1N(C)CCN(C)C", "test": "BICR", "test system": "EGFR-mutant NSCLC patients", "conditions": "dose not given", "quantity": "median duration of response", "result": "17.5 months"}
{"SMILES": "CC(C)n1c(C2CCNCC2)nc2c([N+](=O)[O-])c(Br)c(Br)cc21", "test system": "patients with AML, bone marrow", "conditions": "all dose levels", "scale": "reference: baseline", "quantity": "median blast change", "result": "-13%"}
{"SMILES": "Nc1nc2cc(-c3ccc4ncc(C(=O)N5CCOCC5)n4c3)ccc2o1", "test": "RECIST v1.1", "test system": "advanced solid tumour patients", "conditions": "dose not given, once-daily dosing", "quantity": "median clinical benefit duration", "result": "4.8 months"}
{"SMILES": "CCN1CCN(Cc2ccc(Nc3ncc(F)c(-c4cc(F)c5nc6n(c5c4)[C@H](C)CCC6)n3)nc2)CC1", "test": "Phase Ia, RECIST v1.1", "test system": "patients with advanced solid tumours", "conditions": "dose not given, monotherapy, all doses", "quantity": "median duration of response", "result": "3.7 months"}
{"SMILES": "Cc1cc(Nc2ncc(Cl)c(Nc3ccccc3S(=O)(=O)C(C)C)n2)c(OC(C)C)cc1C1CCNCC1", "test system": "patients with advanced solid tumours", "conditions": "dose not given, with: gemcitabine and cisplatin", "quantity": "median progression-free survival", "result": "5.6 months"}
{"SMILES": "CN(C)C(=O)c1cc2cnc(Nc3ccc(N4CCNCC4)cn3)nc2n1C1CCCC1", "test system": "HR+/HER2− advanced breast cancer patients", "conditions": "dose not given, region North America", "quantity": "median PFS2", "result": "33.5 months"}
{"SMILES": "COc1ncnn2ccc(-c3cnc4nc(C)n(Cc5nnc([C@@H](C)F)o5)c4c3)c12", "test system": "Homo sapiens, relapsed or refractory AML or MDS", "conditions": "dose not given, all patients", "quantity": "median overall survival", "result": "10.4 months"}
{"note": "Excerpt of the above:"}
{"SMILES": "Nc1nc2cc(-c3ccc4ncc(C(=O)N5CCOCC5)n4c3)ccc2o1", "test": "RECIST v1.1", "test system": "advanced solid tumour patients", "conditions": "dose not given, once-daily dosing", "quantity": "median clinical benefit duration", "result": "4.8 months"}
